Assay results collected from several papers.
Compare with care: the assays were run in different laboratories. Several values in a cell are separate wells, animals, samples, runs or records. Numbers after ± are the reported error.

| Compound | test | system | conditions | how to read | measurement | result |
| --- | --- | --- | --- | --- | --- | --- |
| C[C@@H](NC(=O)N1C(=O)[C@H](Cc2ccnc(N)c2)[C@H]1C(=O)O)C1CCCCC1 | – | human, plasma | continuous intravenous infusion, 1.5 mg/kg/h, days 1 to 6 of 5-day infusion, mean | – | maximum prothrombin time | 13.3 s |
| CCCCc1nc2c(N)nc3ccccc3c2n1Cc1ccc(N)cc1 | CD86 expression, flow cytometry | CD20+ B cells in PBMC, human | 100 or 1000 nM | – | CD86 induction | increased |
| O=C(NC[C@H]1CN(c2ccc(N3CCOCC3=O)cc2)C(=O)O1)c1ccc(Cl)s1 | – | human normal renal function, plasma | 10 mg, mean, unit not given | baseline: baseline | maximum prothrombin time prolongation | 9.55 |
| [Cl][Ru][Cl].c1cnc2c(c1)ccc1cccnc12.c1cnc2c(c1)ccc1cccnc12.c1cnc2c(c1)ccc1cccnc12 | – | air-saturated acetonitrile | – | – | singlet oxygen quantum yield | 53% |
| CO[C@H]1CC[C@H](N2C(=O)CNc3ncc(-c4ccc(C(C)(C)O)nc4)nc32)CC1 | flow cytometry | stimulated monocytes, human, blood | 45 mg single dose, 1.5 h, median | baseline: baseline | pAKT change from baseline | -60.3% |
| CCc1c(C)nc(-c2ccc(Cl)s2)nc1Nc1ccc(CC(=O)O)cc1 | – | C57BL/6J mice, high-fat diet, liver | intraperitoneal, 0.3 mg/kg daily, 60% fat diet 12 weeks, dosed last four | baseline: vehicle | TUNEL-positive cells | decreased |
| CC(C)NCC(O)c1ccc(O)c(O)c1 (centres unmarked) | – | ventricular cardiomyocytes, C57BL/6 mouse | dose not given, 0.716 s | – | sarcomere length | 1.72 µm |
| CO[C@@H]1[C@@H](OC(N)=O)[C@@H](O)[C@H](Oc2ccc3c(O)c(NC(=O)c4ccc(O)c(CC=C(C)C)c4)c(=O)oc3c2C)OC1(C)C | – | Brca1 cc/cc MEFs, mouse | 100 µM | – | colony survival | 78.3% and 70.2% and 55.8% and 41.2% |
| CN(C)C(=O)c1cc2cnc(Nc3ccc(N4CCNCC4)cn3)nc2n1C1CCCC1 | RNA-seq GSEA, refers to: HALLMARK_ESTROGEN_RESPONSE_LATE gene set | MB002 tumour | concentration not given | baseline: vehicle, direction not given | enrichment score | 0.381 |
| C[C@@H](O)CCOC(=O)C[C@@H](C)O | – | human | oral drink, dose not given, 30 min post dose, median, all participants | – | plasma NEFA | 0.4 mM |
| Cn1cc(Nc2nccc(-c3ccc4c(c3)CN(C3COC3)CC[C@H]4NC(=O)c3cn(C(C)(C)C)nn3)n2)cn1 | refers to: Cardiac β-adrenergic Signaling | splenic B cells, Mus musculus | 30 mg/kg, added: IgD activation | baseline: vehicle, direction not given | pathway activation z-score | 0.905 |
| C[C@H](Oc1ccc(Br)cc1-c1ccon1)C(=O)O | last response peak | human, tibialis anterior muscle | 100 mg, 15 Hz, single ascending dose | – | difference from placebo | 8.5% |
| Oc1ccc(/C=C/c2cc(O)cc(O)c2)cc1 | H&E staining | Mus musculus, chronic-plus-binge ethanol, liver | dose not given | – | steatosis area | 0.503% and 0.461% and 0.487% and 0.557% |
| C[C@@H]1C[C@H]2[C@@H]3CCC4=CC(=O)C=C[C@]4(C)[C@@]3(F)[C@@H](O)C[C@]2(C)[C@@]1(O)C(=O)CO | – | mouse, oxazolone dermatitis, plasma | topical, 20 mg/ear, once daily, unit not given | baseline: vehicle | IL4 level difference | -28.5 |
| C=CCn1c(=O)c2cnc(Nc3ccc(N4CCN(C)CC4)cc3)nc2n1-c1ccc2c(n1)[C@@](O)(CC)CC2 | – | AN3-CA xenograft, BALB/c nude mice | oral, 80 mg/kg, day 12, once daily x 15 | – | tumour volume difference | 926 ± 50.2 mm3 |
| CCCCSC1CC(=O)N(c2ccc(Br)cc2)C1=O (centres unmarked) | CoA-CPM signal reduction, CPM fluorescence thiol | cell-free biochemical | assay interference counter-screen, added: CoA replacing acetyl-CoA | – | IC50 | > 125 µM |
| CCCCCCCCCC(=O)N[C@@H](Cc1c[nH]c2ccccc12)C(=O)N[C@H](CC(N)=O)C(=O)N[C@@H](CC(=O)O)C(=O)N[C@@H]1C(=O)NCC(=O)N[C@@H](CCCN)C(=O)N[C@@H](CC(=O)O)C(=O)N[C@H](C)C(=O)N[C@@H](CC(=O)O)C(=O)NCC(=O)N[C@H](CO)C(=O)N[C@@H]([C@H](C)CC(=O)O)C(=O)N[C@@H](CC(=O)c2ccccc2N)C(=O)O[C@@H]1C | – | mammalian membrane liposomes | 50 µg/mL, 100 min | – | calcein leakage | ~6% |
| Cn1ccnc1-c1noc(N)n1 | CoA-CPM signal reduction, CPM fluorescence thiol | cell-free biochemical | assay interference counter-screen, added: CoA replacing acetyl-CoA | – | IC50 | > 125 µM |
| C#Cc1ccc(C(F)(F)F)cc1C=O | HPLC-MS | – | pH 10.2, added: 50 mM N-α-acetyl-lysine | – | pseudo-first-order rate constant | 3 h⁻¹ |
| O[C@H]1CCCN[C@@H]1CCCn1cnc2c(Cl)c(Cl)ccc21 | ELISA, refers to: Pro-C6 | healthy human volunteers, serum | intraduodenal, 100 mg twice daily, day 14, multiple ascending dose | – | maximum reduction | 10.2% |
| COc1ncc(-c2nc3c(n2C(C)C)[C@H](c2ccc(Cl)cc2)N(c2cc(Cl)cn(C)c2=O)C3=O)c(OC)n1 | International Working Group criteria | human acute myeloid leukemia patients | oral, 20 to 30 mg, response TF, low-dose | – | best overall response | 85.7% |
| CCO[C@H]1CCN(Cc2c(OC)cc(C)c3[nH]ccc23)[C@H](c2ccc(C(=O)O)cc2)C1 | – | PNH patients, blood | oral, 25 mg then 100 mg, week 4, mean percent change | baseline: baseline | PNH RBC clone size | 130% |
| O=C(NNC1CC(=O)N(c2ccc(Br)cc2)C1=O)c1cccnc1 (centres unmarked) | CoA-CPM signal reduction, CPM fluorescence thiol | cell-free biochemical | assay interference counter-screen, added: CoA replacing acetyl-CoA | – | IC50 | > 125 µM |
| COc1nc(-c2cc(C)c(N[C@@H](C)c3cc(F)cc(F)c3)nn2)ccc1-n1cnc(C)c1 | refers to: Aβ40 | rat Sprague-Dawley male, brain | oral, 5 mg/kg daily for 9 days, 4 h after dose | baseline: vehicle | change in level | 29% |

| Compound | test | system | conditions | how to read | measurement | result |
| --- | --- | --- | --- | --- | --- | --- |
| CN[C@@H]1COc2c(S(=O)(=O)NC(=O)Nc3c4c(cc5c3CCC5)CCC4)cnn2C1 | refers to: IL-18 | human participants, whole blood ex vivo | 900 mg twice daily, multiple doses, 12 h, IL-18, circulating, adjusted for, added: LPS/ATP | baseline: baseline | inhibition | 98.1% |
| CN1CC[C@H](c2c(O)cc(O)c3c(=O)cc(-c4ccccc4Cl)oc23)[C@H](O)C1 | – | zebrafish embryos | dose not given, 24 hpf | – | RNA Pol II CTD Ser5 phosphorylation | decreased |
| CC(=O)Oc1cc2c(s1)CCN(C(C(=O)C1CC1)c1ccccc1F)C2 (centres unmarked) | platelet aggregation, light transmittance aggregometry | human, platelet-rich plasma | dose not given, 15 min, IPA above 90 %, added: TRAP 5 µM | baseline: patients | patients with IPA above threshold | 0% |
| NC(=O)c1cnc2[nH]ccc2c1N[C@@H]1[C@@H]2CC3C[C@H]1C[C@@](O)(C3)C2 | CD4+ central memory T cells, flow cytometry | Japanese humans, peripheral blood | 20 mg single dose | baseline: baseline | percent change | 0.02% |
| Cc1n[nH]c2ccc(-c3cc(OC[C@@H](N)Cc4ccccc4)cnc3-c3ccoc3)cc12 | kinase binding, competitor, MIB/MS competition, refers to: RTK1 | Candida albicans cell lysate | 1 µM | baseline: DMSO | log2 fold change | 0.118 |
| C[C@H]1C[C@H]2CSC(N)=N[C@@]2(c2nc(NC(=O)c3ccc(OC(F)F)cn3)cs2)CO1 | refers to: total Aβ | healthy adults, plasma | 15 mg once daily, day 7 | baseline: placebo | percent change from baseline | -52.2% |
| CCCC(CCC)C(=O)Oc1cccc(C(O)CCN)c1.O=CO (centres unmarked) | OCT at 500 µm from nerve head | Abca4-/-Rdh8-/- mice, photic damage | intraperitoneal, 10 mg/kg, 7 days, added: 10,000 lx light, 30 min | – | ONL thickness | 58.9 µm and 55.4 µm and 59.2 µm and 59.4 µm and 55.8 µm |
| CO[C@H]1C[C@@H]2CC[C@@H](C)[C@@](O)(O2)C(=O)C(=O)N2CCCC[C@H]2C(=O)O[C@H]([C@H](C)C[C@@H]2CC[C@@H](O)[C@H](OC)C2)CC(=O)[C@H](C)/C=C(\C)[C@@H](O)[C@@H](OC)C(=O)[C@H](C)C[C@H](C)/C=C/C=C/C=C/1C | oral glucose tolerance test | healthy adult horses | dose not given, 90 min, baseline before treatment | – | blood glucose | 162 mg/dL |
| OC(CCN1CCCCC1)(c1ccccc1)C1CC2C=CC1C2 (centres unmarked) | resting-state EEG | healthy elderly humans | oral, 2 mg, eyes open, LS mean | – | EEG Alpha2-power Fz-Cz | 1.7 µV² |
| CCOC(=O)c1c(NC(=O)CNC(C)C)sc2c1CCCCC2 | EEG | mouse APP J20 | intraperitoneal, 25 mg/kg, first 2 h | – | NREM sleep time | 70.1 ± 2.38% |
| CN(C)C(=O)Oc1cccc([N+](C)(C)C)c1 | neuromuscular block reversal | rat | dose not given, 19.5 (unit not given), added: cisatracurium | baseline: T1 twitch | train-of-four ratio | 98.8 |
| O=C(OC(C(F)(F)F)C(F)(F)F)N1CCN(Cc2cccc(Oc3ccccc3)c2)CC1 | PET blocking study | rhesus monkey, brain HIP | 0.3 mg/kg, compound pretreatment, added: [18F]T-401 tracer | – | k3 | 1.68 min⁻¹ |
| Cc1noc(C)c1-c1cc(C(O)(c2ccccn2)c2ccccn2)c2nc(C3CC3)[nH]c2c1 | refers to: HEXIM1 expression | human, peripheral blood | 2 mg, day 8, 1604 study | – | maximum induction | 30% |
| O=C(O)CNC(=O)Cc1ccccc1 | – | ventricular cardiomyocytes, C57BL/6 mouse | dose not given, 0.504 s | – | sarcomere length | 1.63 µm |
| O=C1CC(Nc2ccccc2)C(=O)N1c1ccc(Br)cc1 (centres unmarked) | CoA-CPM signal reduction, CPM fluorescence thiol | cell-free biochemical | assay interference counter-screen, added: CoA replacing acetyl-CoA | – | IC50 | > 125 µM |
| CCCCCC(=O)N1CCC[C@H]1C(=O)N[C@@H](CCC1CCCCC1)C(=O)N[C@@H](CC(C)C)C(=O)NC(C)(C)C(=O)N[C@@H](CC(C)C)C(=O)N[C@@H](CC(C)C)C(=O)NC(C)(C)C(=O)NC(C)(C)C(=O)NCCC(=O)N[C@@H](C)CN(C)C | – | small unilamellar vesicles | concentration not given | – | calcein leakage | 29.5% |
| N#Cc1ccc2c(-c3ccncc3)c(-c3ccc(F)cc3)nn2c1 | kinase binding, competitor, MIB/MS competition, refers to: HRR25 | Candida albicans cell lysate | 100 nM | baseline: DMSO | log2 fold change | -0.339 |
| O=C(COc1ccc(Cl)cc1)NC12CC(c3nnc([C@H]4C[C@@H](OC(F)(F)F)C4)o3)(C1)C2 | – | healthy human, PBMC | 260 mg once daily, day 15, 24 h post-dose, median, added: sodium arsenite ex vivo | baseline: baseline | CHAC1 mRNA change | -75.6% |
| Sc1ncnc2[nH]cnc12 | CoA-CPM signal reduction, CPM fluorescence thiol | cell-free biochemical | assay interference counter-screen, added: CoA replacing acetyl-CoA | – | IC50 | > 125 µM |
| CC(CCc1ccc(O)cc1)NCCc1ccc(O)c(O)c1 (centres unmarked) | – | anaesthetised instrumented rat | iv infusion, 1 µg/kg/min, 15 min | baseline: baseline | mean arterial pressure change | -0.1 ± 1.3% |
| Cn1cc([C@H]2C[C@H]3CSC(N)=N[C@@]3(c3ccc(F)cc3F)CO2)cn1 | refers to: Aβx-40 | wild-type mouse, brain | subcutaneous, 10 mg/kg, 3 h | – | brain Aβ40 level | 1.85 ng/g |
| Cc1cccc(Nc2nc(-c3ccccc3)no2)c1 | CoA-CPM signal reduction, CPM fluorescence thiol | cell-free biochemical | assay interference counter-screen, added: CoA replacing acetyl-CoA | – | IC50 | > 125 µM |
| CC(C)c1c(C(=O)Nc2ccccc2)c(-c2ccccc2)c(-c2ccc(F)cc2)n1CC[C@@H](O)C[C@@H](O)CC(=O)O | – | cynomolgus monkey, female, serum | 40 mg/kg or 25 mg/kg, day 86, 2064 h | – | triglycerides | 34.1 mg/dL |

A few entries again:
| Compound | test | system | conditions | how to read | measurement | result |
| --- | --- | --- | --- | --- | --- | --- |
| CCCCCC(=O)N1CCC[C@H]1C(=O)N[C@@H](CCC1CCCCC1)C(=O)N[C@@H](CC(C)C)C(=O)NC(C)(C)C(=O)N[C@@H](CC(C)C)C(=O)N[C@@H](CC(C)C)C(=O)NC(C)(C)C(=O)NC(C)(C)C(=O)NCCC(=O)N[C@@H](C)CN(C)C | – | small unilamellar vesicles | concentration not given | – | calcein leakage | 29.5% |
| N#Cc1ccc2c(-c3ccncc3)c(-c3ccc(F)cc3)nn2c1 | kinase binding, competitor, MIB/MS competition, refers to: HRR25 | Candida albicans cell lysate | 100 nM | baseline: DMSO | log2 fold change | -0.339 |
| O=C(COc1ccc(Cl)cc1)NC12CC(c3nnc([C@H]4C[C@@H](OC(F)(F)F)C4)o3)(C1)C2 | – | healthy human, PBMC | 260 mg once daily, day 15, 24 h post-dose, median, added: sodium arsenite ex vivo | baseline: baseline | CHAC1 mRNA change | -75.6% |
| Sc1ncnc2[nH]cnc12 | CoA-CPM signal reduction, CPM fluorescence thiol | cell-free biochemical | assay interference counter-screen, added: CoA replacing acetyl-CoA | – | IC50 | > 125 µM |
| CC(CCc1ccc(O)cc1)NCCc1ccc(O)c(O)c1 (centres unmarked) | – | anaesthetised instrumented rat | iv infusion, 1 µg/kg/min, 15 min | baseline: baseline | mean arterial pressure change | -0.1 ± 1.3% |
